Measured values pooled from the literature.
Parts stem from different laboratories: compare values within a part only. ± gives the spread as reported.

Set 1
Target: Replicase polyprotein 1ab, nsp13 helicase (rep, Severe acute respiratory syndrome coronavirus 2, UniProt P0DTD1)
Mode: inhibitor
Organism: SARS-CoV-2
SMILES | IC50
COC(=O)C1=C(C)NC(C)=C(C(=O)OCC(C)C)C1c1ccccc1[N+](=O)[O-] (stereo not drawn) | 9.65 µM
O=C1C2CC=CCC2C(=O)N1SC(Cl)(Cl)Cl (stereo not drawn) | 1.86 µM
COc1cc2c(cc1OC)-c1cc3ccc(OC)c(OC)c3c[n+]1CC2 | 109 µM
O=[N+]([O-])C(Br)(CO)CO | 3.35 µM
COC(=O)C1=C(C)NC(C)=C(C(=O)OC)C1c1ccccc1[N+](=O)[O-] | 8.11 µM
COc1cc(C(=S)N2CCOCC2)ccc1O | 58.2 µM
S=C(S)N1CCCC1 | 3.22 µM
C[C@H](NC(=O)/C(C#N)=C/c1cccc(Br)n1)c1ccccc1 | 15.5 µM
CC(C)N(CCC(=O)c1ccc2ccccc2c1)Cc1ccccc1 | 1.9 µM
CCOC(=O)Nc1ccc(NCc2ccc(F)cc2)nc1N | 10.3 µM
N=C(N)NN=C1C=CC(=NNC(N)=S)C=C1 | 299 µM
COCCCOc1ccnc(C[S+]([O-])c2nc3ccccc3[nH]2)c1C (stereo not drawn) | 27.9 µM
CC(=O)C(=Cc1cc(O)c(O)c([N+](=O)[O-])c1)C(C)=O | 7.07 µM
CN(C)C(=S)SSC(=S)N(C)C | 0.62 µM
CC(C)Nc1cccnc1N1CCN(C(=O)c2cc3cc(NS(C)(=O)=O)ccc3[nH]2)CC1 | 39.7 µM

Set 2
Cell line: HEK-293T/ACE2
Concentration: concentration not given
Time: 16 (unit not given)
Baseline: vehicle
Structure (SMILES) | viability [%]
Cc1cc(C(C)(C)C)c(O)c(C)c1CC1=NCCN1 | 101
CC(C)Cn1cnc2c(N)nc3ccccc3c21 | 88.4
CCCCc1ncc(/C=C(\Cc2cccs2)C(=O)O)n1Cc1ccc(C(=O)O)cc1 | 103

Set 3
Structure (SMILES): COc1cccc2c1C(=O)c1c(O)c3c(c(O)c1C2=O)C[C@@](O)(/C(CO)=N/NC(=O)CCCCCN1C(=O)C=CC1=O)C[C@@H]3O[C@H]1C[C@H](N)[C@H](O)[C@H](C)O1
rep main protease: Replicase polyprotein 1ab, main protease (rep, Severe acute respiratory syndrome coronavirus 2, UniProt P0DTD1)
tested on | read-out | mode | cell line | concentration | notes | inhibition
rep main protease | enzyme activity | inhibitor |  | 20 µM | primary screen | 101%
SARS-CoV-2 | cytopathic effect |  | Vero E6 | 10 µM |  | -7.5%
rep main protease | enzyme activity | inhibitor |  | 20 µM | hit confirmation | 101%

Mixed results
rep papain-like protease: Replicase polyprotein 1ab, papain-like protease (rep, Middle East respiratory syndrome-related coronavirus, UniProt K9N7C7)
Compound | tested on | assay | system | conditions | how to read | measurement | value
COc1ccc(CCN2CCC(Nc3nc4ccccc4n3Cc3ccc(F)cc3)CC2)cc1 | mouse MPNST tumor cells | high-content nuclear imaging, measured: cell number |  | 10 µM, 12 h, mean of 2 replicates | baseline: plate mean, higher = more cells | nuclei count | -6.61 z-score
CC[C@H](C)[C@H](NC(=O)[C@H](CC(C)C)NC(=O)[C@H](Cc1c[nH]c2ccccc12)NC(=O)[C@H](CCC(N)=O)NC(=O)[C@@H](NC(=O)[C@H](Cc1ccccc1)NC(=O)[C@H](C)NC(=O)[C@H](CCCCNC(=O)COCCOCCNC(=O)COCCOCCNC(=O)CC[C@H](NC(=O)CCCCCCCCCCCCCCCCCCC(=O)O)C(=O)O)NC(=O)[C@H](CCC(N)=O)NC(=O)[C@H](C)NC(=O)[C@@H](NC(=O)[C@H](CCCCN)NC(=O)[C@H](CC(=O)O)NC(=O)[C@H](CC(C)C)NC(=O)C(C)(C)NC(=O)[C@@H](NC(=O)[C@H](CO)NC(=O)[C@H](Cc1ccc(O)cc1)NC(=O)[C@H](CC(=O)O)NC(=O)[C@H](CO)NC(=O)[C@@H](NC(=O)[C@H](Cc1ccccc1)NC(=O)[C@@H](NC(=O)CNC(=O)[C@H](CCC(=O)O)NC(=O)C(C)(C)NC(=O)[C@@H](N)Cc1ccc(O)cc1)[C@@H](C)O)[C@@H](C)O)[C@@H](C)CC)[C@@H](C)CC)C(C)C)C(=O)N[C@@H](C)C(=O)NCC(=O)NCC(=O)N1CCC[C@H]1C(=O)N[C@@H](CO)C(=O)N[C@@H](CO)C(=O)NCC(=O)N[C@@H](C)C(=O)N1CCC[C@H]1C(=O)N1CCC[C@H]1C(=O)N1CCC[C@H]1C(=O)N[C@@H](CO)C(N)=O |  |  | healthy subjects, single ascending dose | 8.0 mg, postbaseline |  | treatment-emergent ADA positive subjects | 0%
N#C[C@@]1(n2ccc(N)nc2=O)O[C@H](CO)[C@@H](O)[C@H]1O | SARS-CoV-2 | viral replication, qRT-PCR of viral RNA | Calu-3, Washington |  |  | EC50 | 0.7 ± 0.3 µM
CCc1ccc(Sc2cc(C(=O)NCCCN3CCCC(C)C3)c3ccccc3n2)cc1 (stereo not drawn) | SARS-CoV-2 | cytopathic effect | USA_WA1/2020 | retest 8-point |  | maximum response | 84.1%
CCC(C(=O)Nc1cc(NC2CCOCC2)ccc1C)n1cc(Cl)cc2nc(SCc3ccc(F)cc3)nc1-2 (stereo not drawn) | rep papain-like protease | enzyme activity, inhibitor |  |  |  | IC50 | > 100 µM
Cc1ccc(C(C)Nc2nc(N3CCNCC3)nc3ccccc23)cc1 (stereo not drawn) | SARS-CoV-2 | cytopathic effect, cell-based CPE | USA_WA1/2020 | round 2, 5-point dilution |  | efficacy | 90.1%
CCC(C(=O)Nc1cc(NC2COC2)ccc1C)n1cc(Br)cc2nc(SCc3ccc(F)cc3)nc1-2 (stereo not drawn) | rep papain-like protease | enzyme activity, inhibitor |  |  |  | IC50 | > 100 µM
CC(C)(C)NCC(O)COc1cccc2[nH]c(C#N)cc12 (stereo not drawn) | mouse MPNST tumor cells | high-content nuclear imaging, measured: cell number |  | 10 µM, 12 h, mean of 2 replicates | baseline: plate mean, higher = more cells | nuclei count | 0.352 z-score
C=C[C@]1(CO)O[C@@H](n2cnc3c(N)nc(N)nc32)C[C@@H]1O | HIV-1 T215F | MTT | MT4 |  |  | IC50 | 0.0079 µM

Excerpt of the above (set 1):
SMILES | IC50
COC(=O)C1=C(C)NC(C)=C(C(=O)OCC(C)C)C1c1ccccc1[N+](=O)[O-] (stereo not drawn) | 9.65 µM
O=C1C2CC=CCC2C(=O)N1SC(Cl)(Cl)Cl (stereo not drawn) | 1.86 µM
COc1cc2c(cc1OC)-c1cc3ccc(OC)c(OC)c3c[n+]1CC2 | 109 µM
O=[N+]([O-])C(Br)(CO)CO | 3.35 µM
